Published values of several laboratories.
Every numbered part comes from another study and shows a few of its results, in no order.
Chain of UniProt Q9UHD2 (whole entry, looked up): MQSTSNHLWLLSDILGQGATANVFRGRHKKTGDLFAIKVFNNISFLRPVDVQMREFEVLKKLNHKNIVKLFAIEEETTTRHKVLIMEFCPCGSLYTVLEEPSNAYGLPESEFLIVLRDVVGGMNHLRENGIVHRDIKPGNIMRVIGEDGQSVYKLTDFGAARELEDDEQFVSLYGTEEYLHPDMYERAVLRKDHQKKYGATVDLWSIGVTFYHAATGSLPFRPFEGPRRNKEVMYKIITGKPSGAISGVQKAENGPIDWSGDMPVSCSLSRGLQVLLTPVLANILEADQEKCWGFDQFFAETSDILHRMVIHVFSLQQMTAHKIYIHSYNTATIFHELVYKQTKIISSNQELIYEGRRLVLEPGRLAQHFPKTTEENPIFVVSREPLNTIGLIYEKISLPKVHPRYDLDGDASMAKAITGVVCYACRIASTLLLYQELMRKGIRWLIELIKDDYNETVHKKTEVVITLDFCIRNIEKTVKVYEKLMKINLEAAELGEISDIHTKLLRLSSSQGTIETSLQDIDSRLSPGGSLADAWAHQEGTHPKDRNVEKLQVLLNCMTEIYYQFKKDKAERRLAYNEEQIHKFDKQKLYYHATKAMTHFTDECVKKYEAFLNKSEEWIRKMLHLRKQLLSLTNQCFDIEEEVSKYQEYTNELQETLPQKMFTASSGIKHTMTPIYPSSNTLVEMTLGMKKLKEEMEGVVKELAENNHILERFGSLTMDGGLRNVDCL
Chain of UniProt P53779 (whole entry, looked up): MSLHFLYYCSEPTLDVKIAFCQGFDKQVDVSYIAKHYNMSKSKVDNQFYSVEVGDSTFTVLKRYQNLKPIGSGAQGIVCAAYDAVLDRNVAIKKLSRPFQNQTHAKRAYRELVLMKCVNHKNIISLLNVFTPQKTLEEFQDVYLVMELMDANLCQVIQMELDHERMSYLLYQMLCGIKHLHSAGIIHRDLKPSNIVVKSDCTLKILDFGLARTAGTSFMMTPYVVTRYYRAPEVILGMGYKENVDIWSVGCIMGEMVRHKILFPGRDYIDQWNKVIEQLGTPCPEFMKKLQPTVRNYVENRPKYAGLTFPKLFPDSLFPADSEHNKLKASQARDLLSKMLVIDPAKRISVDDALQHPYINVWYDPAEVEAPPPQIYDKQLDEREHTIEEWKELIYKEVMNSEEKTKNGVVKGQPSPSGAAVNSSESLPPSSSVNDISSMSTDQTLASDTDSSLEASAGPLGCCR
Chain of UniProt Q16816 (whole entry, looked up): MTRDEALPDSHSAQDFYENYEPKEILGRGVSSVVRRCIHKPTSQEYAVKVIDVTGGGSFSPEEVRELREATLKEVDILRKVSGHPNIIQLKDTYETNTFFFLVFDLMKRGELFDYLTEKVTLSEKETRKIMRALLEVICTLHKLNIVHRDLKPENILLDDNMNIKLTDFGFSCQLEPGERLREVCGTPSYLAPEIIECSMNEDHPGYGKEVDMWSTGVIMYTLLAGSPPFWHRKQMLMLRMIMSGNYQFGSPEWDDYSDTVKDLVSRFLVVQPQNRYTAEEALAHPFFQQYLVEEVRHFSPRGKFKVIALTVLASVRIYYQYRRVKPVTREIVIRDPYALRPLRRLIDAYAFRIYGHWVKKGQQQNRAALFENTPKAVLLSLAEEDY
Chain of UniProt Q8IYT8 (whole entry, looked up): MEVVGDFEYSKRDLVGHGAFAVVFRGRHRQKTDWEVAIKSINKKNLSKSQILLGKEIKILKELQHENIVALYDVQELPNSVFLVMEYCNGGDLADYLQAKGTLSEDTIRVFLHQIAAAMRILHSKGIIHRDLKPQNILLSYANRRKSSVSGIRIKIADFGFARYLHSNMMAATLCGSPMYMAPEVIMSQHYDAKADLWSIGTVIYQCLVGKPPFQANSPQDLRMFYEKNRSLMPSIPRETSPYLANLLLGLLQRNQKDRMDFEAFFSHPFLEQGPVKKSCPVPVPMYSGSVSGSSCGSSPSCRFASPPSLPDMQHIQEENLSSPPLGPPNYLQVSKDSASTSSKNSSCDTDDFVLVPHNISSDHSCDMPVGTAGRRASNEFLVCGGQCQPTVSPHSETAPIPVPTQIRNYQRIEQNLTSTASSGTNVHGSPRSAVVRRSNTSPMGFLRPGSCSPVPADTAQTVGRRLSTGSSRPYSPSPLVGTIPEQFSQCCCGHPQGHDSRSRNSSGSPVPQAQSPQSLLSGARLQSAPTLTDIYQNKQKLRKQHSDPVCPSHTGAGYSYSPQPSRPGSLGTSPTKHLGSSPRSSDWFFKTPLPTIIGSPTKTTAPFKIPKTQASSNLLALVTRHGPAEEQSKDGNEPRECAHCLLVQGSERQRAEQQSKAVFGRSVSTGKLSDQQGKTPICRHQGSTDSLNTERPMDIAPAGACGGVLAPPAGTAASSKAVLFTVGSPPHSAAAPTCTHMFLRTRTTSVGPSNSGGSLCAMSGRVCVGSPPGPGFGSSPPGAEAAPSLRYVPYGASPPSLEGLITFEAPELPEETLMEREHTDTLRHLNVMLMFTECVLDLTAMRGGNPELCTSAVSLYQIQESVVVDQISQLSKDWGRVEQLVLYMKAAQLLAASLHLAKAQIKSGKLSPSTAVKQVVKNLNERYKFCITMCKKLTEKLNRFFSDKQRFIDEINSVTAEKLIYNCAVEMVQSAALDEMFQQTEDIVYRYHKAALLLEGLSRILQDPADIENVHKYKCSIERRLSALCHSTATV
Chain of UniProt P51617 (whole entry, looked up): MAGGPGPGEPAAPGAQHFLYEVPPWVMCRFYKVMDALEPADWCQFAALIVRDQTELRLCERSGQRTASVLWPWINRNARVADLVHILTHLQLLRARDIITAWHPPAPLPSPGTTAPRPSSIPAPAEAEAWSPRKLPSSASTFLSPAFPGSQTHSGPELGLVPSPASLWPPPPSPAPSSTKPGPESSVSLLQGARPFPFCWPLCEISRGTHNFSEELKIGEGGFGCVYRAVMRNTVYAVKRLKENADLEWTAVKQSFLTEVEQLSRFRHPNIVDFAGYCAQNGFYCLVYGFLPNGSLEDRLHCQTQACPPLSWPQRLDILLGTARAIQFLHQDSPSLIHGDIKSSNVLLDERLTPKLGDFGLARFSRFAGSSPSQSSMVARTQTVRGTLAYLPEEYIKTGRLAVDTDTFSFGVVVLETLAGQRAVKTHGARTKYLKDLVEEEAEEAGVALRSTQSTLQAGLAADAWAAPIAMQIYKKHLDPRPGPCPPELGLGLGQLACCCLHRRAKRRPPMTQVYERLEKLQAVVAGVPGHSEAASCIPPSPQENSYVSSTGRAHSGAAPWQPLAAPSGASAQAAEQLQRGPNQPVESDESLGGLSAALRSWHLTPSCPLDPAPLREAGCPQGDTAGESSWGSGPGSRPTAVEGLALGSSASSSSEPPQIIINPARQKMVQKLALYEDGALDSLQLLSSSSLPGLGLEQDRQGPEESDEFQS
Chain of UniProt P37173 (whole entry, looked up): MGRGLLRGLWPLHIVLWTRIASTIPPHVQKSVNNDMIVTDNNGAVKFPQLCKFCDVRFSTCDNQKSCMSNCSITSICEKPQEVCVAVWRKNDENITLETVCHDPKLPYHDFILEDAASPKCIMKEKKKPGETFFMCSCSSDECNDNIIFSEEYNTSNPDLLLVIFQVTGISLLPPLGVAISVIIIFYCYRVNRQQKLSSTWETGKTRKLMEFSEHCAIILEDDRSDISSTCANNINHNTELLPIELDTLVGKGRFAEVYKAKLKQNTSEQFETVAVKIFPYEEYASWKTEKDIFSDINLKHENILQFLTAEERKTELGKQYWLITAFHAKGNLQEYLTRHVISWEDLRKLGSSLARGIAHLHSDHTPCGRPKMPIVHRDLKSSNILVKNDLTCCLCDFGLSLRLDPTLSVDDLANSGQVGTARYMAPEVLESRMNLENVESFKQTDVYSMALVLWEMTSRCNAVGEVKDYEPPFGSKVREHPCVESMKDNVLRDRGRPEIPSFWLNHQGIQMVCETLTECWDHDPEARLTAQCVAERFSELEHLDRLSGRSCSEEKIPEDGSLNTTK
Chain of UniProt Q15349 (whole entry, looked up): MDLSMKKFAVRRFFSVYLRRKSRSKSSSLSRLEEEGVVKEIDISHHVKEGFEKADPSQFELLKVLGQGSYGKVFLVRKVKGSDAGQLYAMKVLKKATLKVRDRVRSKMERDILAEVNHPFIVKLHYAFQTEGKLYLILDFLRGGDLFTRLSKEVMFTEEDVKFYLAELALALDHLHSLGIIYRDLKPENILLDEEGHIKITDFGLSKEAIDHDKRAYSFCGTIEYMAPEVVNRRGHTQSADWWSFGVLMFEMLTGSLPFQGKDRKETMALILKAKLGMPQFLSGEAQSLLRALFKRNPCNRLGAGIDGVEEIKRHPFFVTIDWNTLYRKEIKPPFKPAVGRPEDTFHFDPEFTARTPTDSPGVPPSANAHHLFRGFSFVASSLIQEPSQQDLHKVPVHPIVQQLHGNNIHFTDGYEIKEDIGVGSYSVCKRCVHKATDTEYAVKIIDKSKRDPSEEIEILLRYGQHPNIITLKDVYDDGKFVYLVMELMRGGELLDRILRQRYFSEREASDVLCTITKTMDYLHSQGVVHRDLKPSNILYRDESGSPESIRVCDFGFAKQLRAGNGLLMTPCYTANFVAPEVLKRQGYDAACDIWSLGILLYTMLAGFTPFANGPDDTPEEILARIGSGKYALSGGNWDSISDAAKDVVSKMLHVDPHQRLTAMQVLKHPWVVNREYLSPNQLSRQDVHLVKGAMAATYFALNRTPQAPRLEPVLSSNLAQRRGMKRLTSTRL

Sample 1 — Structure (SMILES): COc1cc2ncc(-c3ccccc3)nc2cc1OC; effect on: enzyme activity; action: inhibitor; tested at: 0.5 µM; relative to: control
ARAF (Homo sapiens, UniProt P10398) — remaining activity: 87.6%.
RPS6KA2 (Homo sapiens, UniProt Q15349) — remaining activity: 85.4%.
For TAOK2 (Homo sapiens, UniProt Q9UL54): remaining activity read 95.9%.
ULK2 (Homo sapiens, UniProt Q8IYT8) — remaining activity: 113%.
It gave 90.3% for remaining activity (JAK3 (Homo sapiens, UniProt P52333)).
For GRK7 (Homo sapiens, UniProt Q8WTQ7): remaining activity read 105%.
The remaining activity was 84% (CSNK1G2 (Homo sapiens, UniProt P78368)).
The remaining activity was 85.9% (MAPKAPK2 (Homo sapiens, UniProt P49137)).
The remaining activity was 87.2% (TBK1 (Homo sapiens, UniProt Q9UHD2)).
It gave 86.8% for remaining activity (EPHA3 (Homo sapiens, UniProt P29320)).
For CSNK1G3 (Homo sapiens, UniProt Q9Y6M4): remaining activity read 104%.
It gave 96% for remaining activity (FGFR3 (Homo sapiens, UniProt P22607)).
FGFR1 (Homo sapiens, UniProt P11362) — remaining activity: 92.9%.
The remaining activity was 99.3% (FRK (Homo sapiens, UniProt P42685)).

Sample 2 — method: protein-binding microarray; form: double-stranded DNA, one strand shown; medium: in vitro; tested at: not given; direction: higher = stronger binding
Target: Max dimerization protein 1, bHLH-zipper, MAX partner unstated (MXD1, Homo sapiens, UniProt Q05195, residues 56-136)
Setting: k-mer, scored over probes, only values ≥0.25
Construct (chain): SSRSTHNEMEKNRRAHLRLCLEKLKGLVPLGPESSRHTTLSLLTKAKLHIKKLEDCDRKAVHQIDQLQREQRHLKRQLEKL
`CCCGTGTA` gave an E-score of 0.283.
With `ATGCACGA` the E-score was 0.348.
`AATGTGCG` has an E-score of 0.334.
For `CCACGTGC`, the E-score was 0.487.
With `AGACCATG` the E-score was 0.289.
With `CACGAGGA` the E-score was 0.444.
For `AGCGTGGA`, the E-score was 0.318.
For `CCCCCCCA`, the E-score was 0.37.

Sample 3 — method: RNA Bind-n-Seq; form: RNA; medium: in vitro; tested at: 100 nM; relative to: input RNA pool; direction: higher = stronger binding
Target: RING finger protein unkempt homolog, zinc fingers 1-6, SBP tag (UNK, Homo sapiens, UniProt Q9C0B0, residues 30-357)
Chain of UniProt Q9C0B0 (30-357, looked up): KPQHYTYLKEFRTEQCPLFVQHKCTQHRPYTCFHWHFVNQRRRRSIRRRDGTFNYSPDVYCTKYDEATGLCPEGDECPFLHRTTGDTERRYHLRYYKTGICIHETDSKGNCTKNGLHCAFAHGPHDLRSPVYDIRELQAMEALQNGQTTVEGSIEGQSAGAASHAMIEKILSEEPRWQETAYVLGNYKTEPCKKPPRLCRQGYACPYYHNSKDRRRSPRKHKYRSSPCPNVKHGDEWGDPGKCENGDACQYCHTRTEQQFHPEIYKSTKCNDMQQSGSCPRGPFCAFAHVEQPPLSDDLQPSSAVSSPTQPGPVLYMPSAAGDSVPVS
Setting: RNA with constant flanks, vertebrate orthologous sites, ends assumed
All sequences stand within: GGGAGUUCUACAGUCCGACGAUC … CAACAGAGGAUUGAGCAUCA
`AUUAGCUGCCUCUGAUCAGGGGACACCAAACGGAGCAAGGAGUAAAAUUGCUGCCAUGUGCACAAUGGCUACACCACAGUCCCUCUUCUGUGUAAAACCAGCUGUGUGUAAGUGUUGAGG` gave a bound/input enrichment of 0.239 ratio.
With `GUGAUGUCCUUACUGUCCCCAGCCAGGGCCGGGGACCGGUGUUUCACUGAGGACCUGCAUUAGAAACAUUUUUUAAAUUGUUGUACAGGAAGAGAUGUGUCUAAAACAGCAUCUUAAAGC` the bound/input enrichment was 1.01 ratio.
The bound/input enrichment of `UGCAUUAUUUGACCAGAGUUGAAGUGACAGAAUUUGAAGAUAUUAAAUCAGGUUACAGAAUAGAUUUUUAUUUUGAUGAAAAUCCUUACUUUGAAAAUAAAGUUAUCUCCAAAGAAUUUC` is reported as 0.203 ratio.
`CAGAGCAGCAUGGGCUGUUGAGCUGUGGAAAAAUGAGCUUUGCAUUUUUGUAUAUUUAAAUAGGAUACUUUUAUAUGAUGGGUGCUUCGAGUGUGAAUGCAGCAGGUUCUCCUUUUCAGA` gave a bound/input enrichment of 1.4 ratio.
`AAGUAUCCCAGUUUACCGUGUUGAGUUGGCAUUGUACAGAAAUUAACAGCCAUAUUGGUCUAGAAACGUUAAACUUAAUUUUUUUCCAUUUGUACAGGGGUAACGCACUGUAUUAAAUAU` gave a bound/input enrichment of 0.729 ratio.
With `CAACUCAAUGGUUGAAGGUUCGGAACUCAAAAAGGUUCGUUCCAACUCCAGGAUUUAUCAUCGGUAUUUUUUGCUGGAUGCCGACAUGCAAAGCCUGAGGUGGGAGCCAUCUAAGAAGGA` the bound/input enrichment was 0.112 ratio.
With `GUACCACCUGUGCAGAUUUCCCAACACUGAAUGCAAAGUAGCAAUUUUCAUAGCCACAGUAAGGUAGCUUUAGGGCACUGUUGCCAUGGUUUUAUUCAUGUGCAAGUUUUGAAUAUGUAU` the bound/input enrichment was 1.19 ratio.
With `CCUUCCUUCCUUCCUUCUUCCCUCCCUCCCUUCAUUUCUUUCAUUUUUUUACAUUUUGUAUAGAAACAAAUUCAUUUAAACGAACUUAUUAUUAUUAUUUUUUACAAAAUAUAUAUAUAG` the bound/input enrichment was 1.17 ratio.

Sample 4 — effect on: cell-free assay; method: competition with immobilised ligand; tested at: 1 µM
SMILES: CN(C(=O)c1ccccc1)c1cc(N(C)c2ccc3c(c2)CCc2ccc(C(=O)NCCN4CCOCC4)cc2C3=O)ccc1F
For TSSK1B (Homo sapiens, UniProt Q9BXA7): remaining binding read 65%.
For NEK9 (Homo sapiens, UniProt Q8TD19): remaining binding read 95%.
It gave 100% for remaining binding (HUNK (Homo sapiens, UniProt P57058)).
The remaining binding was 92% (MAP3K9 (Homo sapiens, UniProt P80192)).
The remaining binding was 83% (OXSR1 (Homo sapiens, UniProt O95747)).
The remaining binding was 100% (PDPK1 (Homo sapiens, UniProt O15530)).
For EGFR (Homo sapiens, UniProt P00533): remaining binding read 100%.
AXL (Homo sapiens, UniProt P30530) — remaining binding: 87%.
MARK3 (Homo sapiens, UniProt P27448) — remaining binding: 99%.
IRAK1 (Homo sapiens, UniProt P51617) — remaining binding: 100%.
MINK1 (Homo sapiens, UniProt Q8N4C8) — remaining binding: 93%.
PHKG1 (Homo sapiens, UniProt Q16816) — remaining binding: 69%.
Tyrosine-protein kinase ABL1, non-phosphorylated (ABL1, Homo sapiens, UniProt P00519, Q252H) — remaining binding: 85%.
The remaining binding was 100% (MAPK10 (Homo sapiens, UniProt P53779)).
For ITK (Homo sapiens, UniProt Q08881): remaining binding read 100%.
The remaining binding was 100% (CDK8 (Homo sapiens, UniProt P49336)).
It gave 96% for remaining binding (TGFBR2 (Homo sapiens, UniProt P37173)).
For Ribosomal protein S6 kinase alpha-1, N-terminal kinase domain (RPS6KA1, Homo sapiens, UniProt Q15418): remaining binding read 87%.
For TBK1 (Homo sapiens, UniProt Q9UHD2): remaining binding read 84%.

Some of these lines once more (sample 2):
`CCCGTGTA` gave an E-score of 0.283.
With `ATGCACGA` the E-score was 0.348.
`AATGTGCG` has an E-score of 0.334.
